Published values of several laboratories.
Each line is one published result; not all experiments were run side by side. ± gives the spread as reported.
Organism: Plasmodium falciparum

Structure (SMILES)	test	system	setting	how to read	measurement	value
Cc1cnc(Nc2ccnc3ccc(-c4ccc(S(=O)(=O)N5CCOCC5)cc4)cc23)s1	parasite growth, SYBR Green	TM91C235	–	–	EC50	90 nM
CCN(CC)CCCC(C)Nc1ccnc2cc(Cl)ccc12 (stereo not shown)	growth	3D7	96 h, with: 200 µM IPP	reference: with IPP over without IPP	IC50 ratio	1
CCN(CC)CCCC(C)Nc1ccnc2cc(Cl)ccc12 (stereo not shown)	parasite reduction ratio	3D7 ring stage	10-fold IC50	–	parasite clearance time	96 h
COCC(=O)N1CCC[C@H](C(=O)NCc2nc(-c3ccc(F)cc3)cs2)C1	SYBR Green growth	asexual blood-stage parasites, 3D7	72 h	–	EC50	82 ± 13 nM
CCC1=C(CC)/C(=C/c2cc(-c3ccc(OC(F)(F)F)cc3)c(C)[nH]2)N=C1c1ccc[nH]1	parasite growth, SYBR Green fluorescence	Dd2 (multidrug-resistant), asexual blood stage	72 h	–	IC50	> 2500 nM
O=S(=O)(c1ccc(-c2ccc3nccc(Nc4ccccn4)c3c2)cc1)N1CCOCC1	parasite growth, SYBR Green	D6	–	–	EC50	540 nM
CCN1CCN(Cc2ccc(Nc3nc4ccc(Oc5ccnc(NC(=O)C6CCN(C)CC6)c5)cc4n3C)cc2C(F)(F)F)CC1	–	Cambodian artemisinin-resistant isolates	10 × EC50, 6 h	–	ring-stage survival	active
N[C@@H](COCC(=O)N1CCC[C@H](C(=O)NCc2nc(-c3ccc(C(F)(F)F)cc3)cs2)C1)c1ccccc1	SYBR Green growth	asexual blood-stage parasites, 3D7	72 h	–	EC50	3.4 ± 2.4 nM
CC1=C(Cn2cc(CBr)nn2)C(=O)c2ccccc2C1=O	–	NF54	–	reference: L6 CC50 over IC50	selectivity index	3.3
Cc1nnc(-c2ccc3ccn(CC(=O)Nc4ccccc4Cl)c3c2)o1	luminescence	3D7 Hyp1-Nluc, infected erythrocytes	concentration not given, 8 h, 10 × EC50	reference: chloroquine	RBC lysis fold	1.6 fold
Cn1cc(-c2cnc3[nH]cc(-c4cn(Cc5cccc(F)c5F)nn4)c3c2)cn1	nanoluciferase readout	3D7 Hyp1-Nluc	2 µM, 72 h	reference: DMSO	parasite growth	8.6%
CCOCC(=O)N1CC[C@H](C)[C@H](C(=O)NCc2nc(-c3ccc(C)nc3)cs2)C1 (racemic)	SYBR Green growth	asexual blood-stage parasites, 3D7	72 h	–	EC50	980 ± 190 nM
COc1ccc(CNc2nc(-c3ccc(C(=O)O)nc3)nc3sc4c(c23)CCCC4)cc1Cl	schizont egress, Nluc release	Hyp1-Nluc	10 x growth EC50, 4 h	–	inhibition	100%
NC(N)=Nc1ccc(-c2ccc(-c3ccc(N=C(N)N)c(Cl)c3)o2)cc1Cl	erythrocyte invasion	–	3.94 µM	–	inhibition	100%
O=C(Nc1ccc(CNc2ncnc3ccccc23)cc1)c1ccc(Cl)c(F)c1	invasion and early ring development	Hyp1-Nluc	10 x growth EC50, 4 h	–	inhibition	108%
C[C@H]1[C@@H](C(=O)NCc2nc(-c3ccc(C#N)cc3)cs2)CCCN1C(=O)[C@H]1CCO1	SYBR Green growth	asexual blood-stage parasites, 3D7	72 h	–	EC50	14 ± 3.1 nM
COC1=CC(c2ccc[nH]2)=N/C1=C\c1[nH]c(C(=O)O)cc1Cc1ccc(OC(F)(F)F)cc1	parasite growth, SYBR Green fluorescence	Tm90-C2B (atovaquone-resistant), asexual blood stage	72 h	–	IC50	> 2500 nM
COc1cc(OC)c(CCNC(=O)c2cn3cc(-c4cc(OCC(=O)O)ccc4OC)nc3s2)c(OC)c1	invasion and early ring development	Hyp1-Nluc	10 x growth EC50, 4 h	–	inhibition	97.5%
O=C(NCc1nc(-c2ccccc2)cs1)[C@H]1CCCN(C(=O)COCC(F)(F)F)C1	SYBR Green growth	asexual blood-stage parasites, 3D7	72 h	–	EC50	78 ± 14 nM

Structure (SMILES)	test	system	setting	how to read	measurement	value
O=S(=O)(c1ccc(-c2ccc3nccc(Nc4ccc5[nH]nnc5c4)c3c2)cc1)N1CCOCC1	parasite growth, SYBR Green	TM91C235	–	–	EC50	180 nM
COCC(=O)N1CCC[C@H](C(=O)NCc2nc(-c3ccc(OC(C)C)cc3)cs2)C1	SYBR Green growth	asexual blood-stage parasites, 3D7	72 h	–	EC50	130 ± 21 nM
Cn1nc2c(=O)n(C3CC3)ccc2c1[C@](O)(c1ccc(C(F)(F)F)nc1)C1CC1	parasite growth	3D7	–	–	EC50	6.31 nM
COc1cc(C(=O)N(C)C)ccc1-c1cc2nccc(-c3ccc4ccncc4c3)c2o1	nanoluciferase readout	3D7 Hyp1-Nluc	2 µM, 72 h	reference: DMSO	parasite growth	27.7%
Cn1nc2c(=O)n(C3CC3)ncc2c1[C@](N)(c1ccc(C(F)(F)F)c(Cl)c1)C1CC1	parasite reduction ratio	3D7	concentration not given, linear phase after lag	–	killing curve slope	-0.064
O=S(=O)(c1ccc(-c2ccc3nccc(Nc4cnccn4)c3c2)cc1)N1CCOCC1	parasite growth, SYBR Green	D6	–	–	EC50	4600 nM
CCOCC(=O)N1CCN(C(=O)OC(C)(C)C)C(C(=O)NCc2nc(-c3ccccc3)cs2)C1 (stereo not shown)	SYBR Green growth	asexual blood-stage parasites, 3D7	72 h	–	EC50	> 5000 nM
CC/N=C(\c1ccc(OC)c(OC)c1)N1CCCc2cc(C3=NNC(=O)SC3C)ccc21 (stereo not shown)	nanoluciferase readout	3D7 Hyp1-Nluc	20 µM, 72 h	reference: DMSO	parasite growth	6.48%
CCC1=C(CC)/C(=C/c2[nH]c(Cc3ccc(OC(F)(F)F)cc3)cc2Cc2ccc(OC(F)(F)F)cc2)N=C1c1ccc[nH]1	parasite growth, SYBR Green fluorescence	Dd2 (multidrug-resistant), asexual blood stage	72 h	–	IC50	1500 nM
CNS(=O)(=O)c1ccccc1Nc1nc(Nc2cc(OC)c(OC)cc2C)ncc1Br	nanoluciferase readout	3D7 Hyp1-Nluc	2 µM, 72 h	reference: DMSO	parasite growth	2.37%
O=S(=O)(c1ccc(-c2ccc3nccc(Nc4ccc(OCc5cccc(F)c5)cc4)c3c2)cc1)N1CCOCC1	parasite growth, SYBR Green	W2	–	–	EC50	1700 nM
Cn1nc2c(=O)n(C3CC3)cnc2c1[C@](O)(c1cnc(C(F)(F)F)c(Cl)c1)C(F)(F)F	parasite reduction ratio	3D7	concentration not given, linear phase after lag	–	killing curve slope	-0.061
O=S(=O)(c1ccc(-c2ccc3ncccc3c2)cc1)N1CCOCC1	parasite growth, SYBR Green	TM91C235	–	–	EC50	> 20000 nM
COc1cc2c(cc1O)c(=O)n1ccc3cccc2c31	parasite growth	–	concentration not given	–	activity class	inactive
N#Cc1cnc(Nc2ccnc3ccc(-c4ccc(S(=O)(=O)N5CCOCC5)cc4)cc23)cn1	parasite growth, SYBR Green	TM91C235	–	–	EC50	600 nM
CC1=C(C)/C(=C/c2[nH]c(Cc3ccc(OC(F)(F)F)cc3)cc2Cc2ccc(OC(F)(F)F)cc2)N=C1c1ccc[nH]1	parasite growth, SYBR Green fluorescence	Tm90-C2B (atovaquone-resistant), asexual blood stage	72 h	–	IC50	2370 nM
CCOCC(=O)N1CCNC(C(=O)NCc2nc(-c3ccccc3)cs2)C1 (stereo not shown)	SYBR Green growth	asexual blood-stage parasites, 3D7	72 h	–	EC50	1800 ± 840 nM
CCOCCOc1ccnc2ccc(-c3ccc(S(=O)(=O)N4CCOCC4)cc3)cc12	parasite growth, SYBR Green	TM91C235	–	–	EC50	13000 nM

A few entries again:
Structure (SMILES)	test	system	setting	how to read	measurement	value
CCN(CC)CCCC(C)Nc1ccnc2cc(Cl)ccc12 (stereo not shown)	parasite reduction ratio	3D7 ring stage	10-fold IC50	–	parasite clearance time	96 h
Cn1cc(-c2cnc3[nH]cc(-c4cn(Cc5cccc(F)c5F)nn4)c3c2)cn1	nanoluciferase readout	3D7 Hyp1-Nluc	2 µM, 72 h	reference: DMSO	parasite growth	8.6%
O=C(Nc1ccc(CNc2ncnc3ccccc23)cc1)c1ccc(Cl)c(F)c1	invasion and early ring development	Hyp1-Nluc	10 x growth EC50, 4 h	–	inhibition	108%
COCC(=O)N1CCC[C@H](C(=O)NCc2nc(-c3ccc(F)cc3)cs2)C1	SYBR Green growth	asexual blood-stage parasites, 3D7	72 h	–	EC50	82 ± 13 nM
